Assay results pooled from the literature.
Every numbered part comes from another study and shows a few of its results, in no order. Positions count from the first letter of the parent shown.

Block 1 — technique: RNA Bind-n-Seq; form: RNA; sample: in vitro; concentration: not given; reference: input RNA pool; direction: higher = stronger binding; quantity: bound/input enrichment
Target: RING finger protein unkempt homolog, zinc fingers 1-6, GST-SBP tag (UNK, Homo sapiens, UniProt Q9C0B0, residues 30-357)
UniProt Q9C0B0, sequence (30-357, looked up): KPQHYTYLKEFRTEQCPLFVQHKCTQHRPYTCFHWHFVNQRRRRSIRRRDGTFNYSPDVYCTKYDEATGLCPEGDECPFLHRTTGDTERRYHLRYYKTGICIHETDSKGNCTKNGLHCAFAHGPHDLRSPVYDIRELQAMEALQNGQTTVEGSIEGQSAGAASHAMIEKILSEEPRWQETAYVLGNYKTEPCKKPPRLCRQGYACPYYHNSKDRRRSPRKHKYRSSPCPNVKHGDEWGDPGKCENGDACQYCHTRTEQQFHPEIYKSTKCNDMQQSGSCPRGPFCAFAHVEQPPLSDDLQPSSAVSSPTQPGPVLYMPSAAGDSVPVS
Notes: RNA with constant flanks, human-mouse chimeric sites, ends assumed
All sequences stand within: GGGAGUUCUACAGUCCGACGAUC … CAACAGAGGAUUGAGCAUCA
AGAAAGCAAAACUUGGAACGAUUUAAGAAAGGAGACGUAAGAUUCUUGAUUUGCACAGAUGUAGCUGCUAGAGGGAUUGAUAUCCAUGGCGUUCCUUAUGUUAUAAAUGUCACUCUGCCU: 0.184 ratio
GGGACUGAUUCAUCCCAAGGACAGGCCGCCCAGUCUGAUGCCUGGACUGAUGACAGUAUGUUAGGGCCUAGUCAAAAUGUUGAAGCUGAGUCAAUUCAGGAUGCCAUGAGUAUGGAAGAG: 0.385 ratio
UUACCCGAGAACGAGGAUGAAUUGGAGAGCACCAACAGGCGCUACACCAAGAGGGACUGCAGCACUUUCCUCAGAACUAGCGAGACGGGCAUCGUGGACCAGGUCAUGGUCACUCUCAAC: 0.14 ratio
GAGUCGAGCAAACUUGAAACAAUUCGUUUUACAAAAACCUCAGUGUUCACUUGCUUGUGGCAAUAGCUGGGGUUUUAUAGGUUCUGGAAGGAGAACUGACGAUGAUGCUGCCGCUGCUGC: 0.293 ratio
GGAAGCACAAUGAUGGAGAUUGAUGGUGACAAAGGCAAGCAGGGCGGUCCCACCUACUACAUAGACACCAAUGCCCUCCGCGUGCCCAGGGAGAACAUGGAGGCCAUCUCACCACUCAAG: 0.185 ratio
AACGUGGAGUUGAGUUCCUUGGCCCGGCUUCCCAGCUUGAAUAAACUUCGAAAAUUGGAACUUAGUGACAAUAUAAUUUCUGGAGGCUUGGAAGUCCUGGCAGAGAAAUGUCCAAAUCUU: 0.532 ratio
GAUCAUGAACCACCAUCCAGAAAUGAAAUGAGAUUACCCAGACGAGCCAAAACAGCUGCGCUACAGAAAAGUAAACUUAACCUUGCAGAGUUCCUUAAUGAAGAUACUAAGUUAGGAAGC: 0.459 ratio

Block 2 — target: CCNB1, cyclin fold, Cln2 fusion (human); technique: yeast growth competition, sequencing; sample: yeast; notes: weak parent motif; reference: not given; direction: higher = stronger binding; quantity: normalised enrichment score
Starting sequence: AKAP12 docking peptide (human); GSPLKKLFTSTGL
ASPLKKLFTSTGL [G1A]: -0.641
GSPLKKLATSTGL [F8A]: -0.422
GSPLRKLLTSTGL [K5R F8L]: 0.163
GSPLKKLFTSTGA [L13A]: -0.0622
GSPLAKLFTSTGL [K5A]: -1.02
GSPAKKLFTSTGL [L4A]: 0.106
GSPLKALFTSTGL [K6A]: -0.56

Block 3 — technique: protein binding microarray; form: double-stranded DNA, one strand shown; sample: in vitro; concentration: not given; reference: not given; direction: higher = stronger binding; quantity: E-score
Target: Histone acetyltransferase KAT6A, winged helix 2, GST fusion (KAT6A, Homo sapiens, UniProt Q92794, residues 85-181)
Notes: 8-mer, flanks averaged, mean of 2 arrays, mostly near background
Residues (chain): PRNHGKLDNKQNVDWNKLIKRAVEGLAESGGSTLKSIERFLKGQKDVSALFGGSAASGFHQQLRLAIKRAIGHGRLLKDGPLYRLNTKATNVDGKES
GAACCGGA: 0.0769
GCGCAAAA: 0.0637
GAGATACC: 0.0105
ATACTATC: -0.0867
AGTTGGGC: 0.13
TCTTTAAA: 0.189

Single results of other studies
PhoQ, residues 284 288 289 292 302 303 TYGVAM  fold induction (PhoP, residues 12 14 15 18 19 TPWLV (Escherichia coli, UniProt P23836); Sort-seq, refers to: YFP reporter; E. coli; PhoQ-PhoP variant library, together with: 10 µM Mg2+; reference: high Mg2+ state, higher = stronger signaling): 15.6

Excerpt of the above (block 3):
GAGATACC: 0.0105
TCTTTAAA: 0.189
GCGCAAAA: 0.0637
